Published values of several laboratories.
Numbered parts are unrelated; each lists some results of a single study. Substitutions count along the parent as printed.

Set 1 — target: CCNF, cyclin fold, Cln2 fusion (human); technique: yeast growth competition, sequencing; matrix: yeast; setting: strong parent motif; reference: not given; direction: higher = stronger binding; measurement: normalised enrichment score
Starting sequence: INSM1 docking peptide (human); PKAIRKLHFEDEV; partner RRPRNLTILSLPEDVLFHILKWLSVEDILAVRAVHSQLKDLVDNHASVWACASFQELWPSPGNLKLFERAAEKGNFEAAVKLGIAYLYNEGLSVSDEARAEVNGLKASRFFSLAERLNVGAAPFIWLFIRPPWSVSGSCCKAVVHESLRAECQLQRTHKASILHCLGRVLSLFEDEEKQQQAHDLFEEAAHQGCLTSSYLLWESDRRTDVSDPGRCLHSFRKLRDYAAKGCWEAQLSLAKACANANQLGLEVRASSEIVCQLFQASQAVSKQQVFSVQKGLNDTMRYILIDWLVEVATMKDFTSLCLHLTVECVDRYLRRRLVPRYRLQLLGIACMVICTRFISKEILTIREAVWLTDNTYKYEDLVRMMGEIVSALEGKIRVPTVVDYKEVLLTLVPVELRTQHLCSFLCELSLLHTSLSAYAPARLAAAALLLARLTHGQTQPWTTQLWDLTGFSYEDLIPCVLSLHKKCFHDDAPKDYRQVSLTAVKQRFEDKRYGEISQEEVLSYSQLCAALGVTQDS
PKAIRKLQFEDEV [H8Q]: 7.58
PKAISKLHFEDEV [R5S]: 0.793
PKAIRKLHFEGEV [D11G]: 7.62
PKAIRKDHFEDEV [L7D]: -0.117
PKAIWKLHFEDEV [R5W]: -0.0951
PKAIRKLHSEDEV [F9S]: 0.465
PKAIRKLHFECEV [D11C]: 8.03
PKAIYKLHFEDEV [R5Y]: 0.338
PKAIRKLHVEDEV [F9V]: 0.908
PKAIRKLHMEDEV [F9M]: 5.11
PKAIRKLHKEDEV [F9K]: 0.00772
PQAIRKLHFEDEV [K2Q]: 7.23
PKEIRKLHFEDEV [A3E]: 5.57
PKHIRKLHFEDEV [A3H]: 5.73
PKCIRKLHFEDEV [A3C]: 7.88
PKAIRKLHFEDRV [E12R]: 7.13

Set 2 — technique: RNA Bind-n-Seq; form: RNA; matrix: in vitro; tested at: 20 nM; setting: 6-mer, flanks averaged, single round; together with: 150 mM KCl; reference: input library; direction: higher = stronger binding; measurement: 6-mer enrichment (R)
Target: TAR DNA-binding protein 43, full length, His tag (TARDBP, Homo sapiens, UniProt Q13148, residues 1-414)
ACAACC: 0.615
GGCCCC: 0.87
GAUAGG: 1.68
GGACGA: 1.72
GUUAGC: 0.785
GAAAGU: 0.85
GGCAAU: 1.05
UGGCAG: 1.52
AUAUGA: 0.683
CCUAGA: 0.65
CACACU: 0.618
GCGCGG: 3.63
AUCAGC: 0.637
UAGCUC: 0.593

Set 3 — technique: universal PBM; form: double-stranded DNA, one strand shown; matrix: in vitro; tested at: not given; direction: higher = stronger binding; measurement: E-score
Target: Sal-like protein 4, full length isoform B (SALL4, Homo sapiens, UniProt Q9UJQ4-2, residues 1-616)
Setting: 8-mer, flanks averaged, mean of replicates
CCGGGAGG: -0.425
AAGTATAC: 0.303
GTCAGCAC: -0.14
GCAATATA: 0.334
GCACCGGA: -0.334
GATGCCAA: 0.0446
CAAATTCC: 0.235
AGATCAAC: 0.0319
AACTTTAG: 0.0728
TAGGACAA: 0.194
CCTGGGAC: -0.395
AGTATCGA: 0.177
CCGCCTCC: -0.193
ACGGGGCT: -0.256
GACGCGCC: -0.249
AATGGACG: 0.143
CGCATGTA: 0.0507
AAGCGTCG: -0.178
CTCCGTTC: -0.129
AACGCTAA: -0.039
ATGGAGTC: 0.00141
TACTCGGA: 0.0369
CTTACTTC: 0.0874
ATTTTGAG: 0.197
CTACAGCA: -0.0909

Set 4 — target: BATF2, bZIP domain (human); technique: DHFR protein complementation; matrix: yeast; reference: wild-type JUN-FOS pair; direction: higher = stronger binding; measurement: binding fitness
Setting: single substitutions, most at no-binding floor
Starting sequence: JUN, bZIP domain (human); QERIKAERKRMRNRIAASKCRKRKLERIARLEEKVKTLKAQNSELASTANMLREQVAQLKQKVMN; partner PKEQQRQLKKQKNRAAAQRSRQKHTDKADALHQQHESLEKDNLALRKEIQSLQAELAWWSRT
E54V: -0.645 natural log
A49C: -0.499 natural log
N42Y: -1.14 natural log
T37I: -0.202 natural log
V56W: -1.42 natural log
A46C: -0.412 natural log
S43C: -0.343 natural log
E33T: -0.622 natural log
M51P: -1.24 natural log
L31F: -1.01 natural log
I28F: -0.635 natural log
R53W: -1.21 natural log
R53N: -1.36 natural log
M51L: -0.247 natural log
K34Q: -0.309 natural log

Set 5 — technique: DHFR PCA, deep sequencing; matrix: yeast; together with: (+)-ABA 0.0091 µM; reference: wild-type fitted maximum; direction: higher = stronger binding; measurement: relative binding score
Target: ABI1, truncated, D143A, DHFR fusion (Arabidopsis thaliana)
Setting: methotrexate growth selection, single substitutions
Starting sequence: PYL1, truncated, DHFR fusion (Arabidopsis thaliana); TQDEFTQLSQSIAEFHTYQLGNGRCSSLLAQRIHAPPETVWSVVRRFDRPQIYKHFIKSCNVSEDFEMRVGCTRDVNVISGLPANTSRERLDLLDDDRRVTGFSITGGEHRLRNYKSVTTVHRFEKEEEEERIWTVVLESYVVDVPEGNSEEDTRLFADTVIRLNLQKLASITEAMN; partner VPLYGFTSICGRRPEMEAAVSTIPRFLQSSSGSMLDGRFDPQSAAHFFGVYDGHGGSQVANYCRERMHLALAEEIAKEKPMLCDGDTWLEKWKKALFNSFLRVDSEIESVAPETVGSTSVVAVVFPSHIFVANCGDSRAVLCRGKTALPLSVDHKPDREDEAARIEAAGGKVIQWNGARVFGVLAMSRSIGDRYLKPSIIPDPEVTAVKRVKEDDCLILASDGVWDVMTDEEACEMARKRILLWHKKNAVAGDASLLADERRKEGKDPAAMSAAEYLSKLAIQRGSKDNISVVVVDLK
N61Y: 33.4%
D159T: -7.08%
L20A: 42.9%
E109G: -0.593%
F47G: -1.23%
T17F: 1.54%
I57L: 0.798%
D97Y: 9.25%
V121Y: -9.45%
D75G: -2.36%
L138F: 8.93%
T160C: 2.11%
F157Y: 38.3%
K168G: -6.82%

Set 6 — technique: RNA Bind-n-Seq; form: RNA; matrix: in vitro; tested at: 200 nM; setting: whole 134-nt RNA, ends assumed; together with: 150 mM LiCl; reference: input library; direction: higher = stronger binding; measurement: log2 enrichment; library: 7-deaza-guanosine replaces G
Target: Fragile X messenger ribonucleoprotein 1, C-terminal low-complexity region (Fmr1, Mus musculus, UniProt P35922)
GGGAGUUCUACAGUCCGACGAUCGCAGGAAGUAAAAACAAAUGGAAAUGCUUCGGAUAGUGGCAGAAAUGGGGGUUGCUAAGGAAAGGGUGGGAUGGGAGUGGGUAAAGAGUUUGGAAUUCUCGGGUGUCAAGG: 1.36
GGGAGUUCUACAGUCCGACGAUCCUCAAGUCCUGUGCUACACAUCGUAUGUACCGAAUCGGCCGGGGCCGGGGCCGGAAAGUAUUAUGUUACGCCGUUCGGAUCUGCACUUCCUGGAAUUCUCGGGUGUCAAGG: 0.165
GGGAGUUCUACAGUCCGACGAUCUUCCCUGGUGUGAUUCCGUCCUGCGCGGUUGUUCUCUGGAGCAGCGUUCUUUUAUCUCCGUCCGCCUUCUCUCCUACCUAAGUGCGUGCCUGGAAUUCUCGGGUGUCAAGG: 1.46
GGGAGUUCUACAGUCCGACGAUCCUCAAGUCCUGUGCUACACAUCGUAUGUACCGAAUCGGGCCGGCCGGGCCGGGAAAGUAUUAUGUUACGCCGUUCGGAUCUGCACUUCCAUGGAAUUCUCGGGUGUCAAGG: 0.877
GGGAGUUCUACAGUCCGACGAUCUGUCCUGCAGGGUCGGACCGAUACCUGGAGAGCCGCGAUGCCUCUCGACUGAGUGGCCGGGACCCCUCCUCAUGGACAGUCGAGGAUGUGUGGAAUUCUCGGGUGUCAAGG: -3.84
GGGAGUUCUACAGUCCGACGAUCUCAAGUCCUGUGCUACACAUCGUAUGUACCGAAUCGGGUGGGUUUGGGAAAGGGAAAGUAUUAUGUUACGCCGUUCGGAUCUGCACUUCCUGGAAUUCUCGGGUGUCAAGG: -0.932
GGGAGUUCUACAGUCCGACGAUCAGUCCUGUGCUACACAUCGUAUGUACCGAAUCGGAAAAGGGGAAAAGGGGAAAAGGGAAAGUAUUAUGUUACGCCGUUCGGAUCUGCACUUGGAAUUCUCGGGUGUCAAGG: -0.763
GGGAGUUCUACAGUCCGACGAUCCCUGUGCUACACAUCGUAUGUACCGAAUCGGGCCCCCCGGGCCCCCCGGGCCCCCCGGGGAAAGUAUUAUGUUACGCCGUUCGGAUCUGCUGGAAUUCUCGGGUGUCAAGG: -2.49
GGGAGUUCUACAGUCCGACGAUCUGGGAGGUGGAUUUUGUUUAUUUUUUUAGCUCAUUUCCAGGGGUGGGAAUUUUUUUUUAAUAUGUGUCAUGCAUAAAGUUGUUUUUGAAAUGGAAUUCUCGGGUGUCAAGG: 0.287
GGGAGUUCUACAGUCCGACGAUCCAAGUCCUGUGCUACACAUCGUAUGUACCGAAUCGGAGGUUUUUUUGGAAAAAGGAAAGUAUUAUGUUACGCCGUUCGGAUCUGCACUUCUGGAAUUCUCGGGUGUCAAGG: -1.07
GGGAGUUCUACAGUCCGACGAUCUCCUGUGCUACACAUCGUAUGUACCGAAUCGGGAAAAAAAGGGUUUGGGUUUUUUUGGGAAAGUAUUAUGUUACGCCGUUCGGAUCUGCAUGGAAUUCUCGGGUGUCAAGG: -1.57

Further values, each from its own experiment
PhoQ, residues 284 288 289 292 302 303 SCCLKL
fold induction (PhoP, residues 12 14 15 18 19 QWHVF (Escherichia coli, UniProt P23836); Sort-seq, item: YFP reporter; E. coli; PhoQ-PhoP variant library, together with: 10 µM Mg2+; reference: high Mg2+ state, higher = stronger signaling): 6.84

For quick reference, copied from above (set 2):
GAAAGU: 0.85
ACAACC: 0.615
UGGCAG: 1.52
GGCAAU: 1.05
GGACGA: 1.72
CACACU: 0.618
UAGCUC: 0.593
AUCAGC: 0.637
GAUAGG: 1.68
AUAUGA: 0.683
